{"data": "Measured values gathered from unrelated publications", "note": "Lines come from different studies, so protocols differ. Values joined by “and” are separate records of one study, mostly repeats; a detail may differ. ± marks the error that the study gave.", "UniProt P06276, sequence (whole entry, looked up)": "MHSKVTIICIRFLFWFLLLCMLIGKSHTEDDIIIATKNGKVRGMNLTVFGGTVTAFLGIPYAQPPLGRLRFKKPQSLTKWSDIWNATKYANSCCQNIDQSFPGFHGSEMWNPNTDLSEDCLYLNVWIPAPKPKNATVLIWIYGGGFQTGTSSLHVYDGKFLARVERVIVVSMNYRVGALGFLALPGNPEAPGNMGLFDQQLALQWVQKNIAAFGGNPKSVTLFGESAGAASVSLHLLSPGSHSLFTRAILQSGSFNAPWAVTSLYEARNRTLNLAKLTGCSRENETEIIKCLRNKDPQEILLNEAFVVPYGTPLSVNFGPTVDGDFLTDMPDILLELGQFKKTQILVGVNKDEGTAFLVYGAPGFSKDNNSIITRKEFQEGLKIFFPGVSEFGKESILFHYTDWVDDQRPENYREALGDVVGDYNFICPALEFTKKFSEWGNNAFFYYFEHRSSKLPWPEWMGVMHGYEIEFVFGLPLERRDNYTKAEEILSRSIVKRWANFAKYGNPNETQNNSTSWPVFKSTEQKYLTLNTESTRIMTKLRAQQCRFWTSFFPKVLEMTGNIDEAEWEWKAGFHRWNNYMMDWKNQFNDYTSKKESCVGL"}
{"SMILES": "O=C(O)CCCOc1ccc(F)cc1-c1cc(-c2ccccc2C(F)(F)F)n(-c2ccccc2)n1", "test": "item: TG", "test system": "Crl:CD(SD) rats, male, blood", "conditions": "iv, 25 µg/kg, 14 days", "endpoint": "blood chemistry", "value": "30.9 ± 5.1 mg/dL"}
{"SMILES": "C[C@]1(CO)Cc2ncn(-c3ccc(C#N)c(Cl)c3)c2C(=O)O1", "test system": "human, plasma", "conditions": "3 mg once daily, fasted", "endpoint": "half-life at steady state", "value": "5.2 h"}
{"SMILES": "COc1cc2c(cc1OC)CN(CCc1ccc(NC(=O)c3cccc4c(=O)c5cccc(OC)c5[nH]c34)cc1)CC2", "test system": "CD-1 mouse, male, lung", "conditions": "intraperitoneal, 1 mg/kg", "endpoint": "elimination rate constant", "value": "2.42e-05 s⁻¹"}
{"SMILES": "C[C@@H](NC(=O)N1C(=O)[C@H](Cc2ccnc(N)c2)[C@H]1C(=O)O)C1CCCCC1", "test system": "healthy adult Chinese volunteers", "conditions": "continuous intravenous infusion, 0.3 mg/kg/h, 5-day infusion, CTCAE 5.0 grading", "endpoint": "incidence of infusion site pain", "value": "0%"}
{"SMILES": "O=C1Nc2cc3[nH]nc(-c4ccncc4)c3cc2CN1Cc1ccccc1", "test": "CTCAE v4.03", "test system": "advanced solid tumour patients", "conditions": "intravenous, 7.2 mg/kg", "endpoint": "patients with infusion reaction", "value": "33%"}
{"SMILES": "COc1ccc(C[C@@H]2NC(=O)[C@H]([C@@H](C)O)NC(=O)[C@@H]3[C@@H]4CCN3C(=O)[C@@H]3Cc5cn(c6ccc(F)cc56)CCCCCCN(Cc5ccc(cc5)CCNC(=O)[C@]5(C)CCCN5C2=O)C(=O)CCC(=O)N[C@@H](C)C(=O)N[C@H](CNC(=O)CCCCC[N+](C)(C)C)C(=O)N[C@@H](Cc2cccc(c2)CNC(=O)CO4)C(=O)N3)cc1", "test": "item: tooth abscess", "test system": "human", "conditions": "dose not given", "endpoint": "participants with adverse event", "value": "2%"}
{"SMILES": "CC(C)NCCCC[C@@H]1NC(=O)[C@H](Cc2ccc(O)cc2)NC(=O)[C@H](Cc2ccccc2)NC(=O)CC[C@H](C(=O)N[C@@H](CCCCNC(C)C)C(=O)N[C@@H](CCCCNC(=O)[C@H](CCC(=O)O)NC(=O)[C@H](CCC(=O)O)NC(=O)[C@H](CCC(=O)O)NC(=O)CN2CCN(CC(=O)O)CCN(CC(=O)O)CC2)C(N)=O)NC(=O)CNC(=O)[C@H](Cc2ccc3ccccc3c2)NC(=O)[C@@H](CCCNC(=N)N)NC1=O [fluorine-18 labelled]", "test system": "rhesus macaque, plasma", "conditions": "10 min post-injection", "endpoint": "parent fraction", "value": "63.5%"}
{"SMILES": "COc1cc2c(Oc3ccc4[nH]c(C)cc4c3F)ccnc2cc1OCC1(N)CC1", "test system": "paediatric recurrent refractory sarcoma", "conditions": "8 mg", "endpoint": "Diarrhea incidence", "value": "0%"}
{"SMILES": "COc1cccc2c1CCCC2CCCN1CCN(C2CCCCC2)CC1 (stereo not drawn)", "test system": "CD-1 mouse, male, plasma", "conditions": "intraperitoneal, 10 mg/kg", "endpoint": "Tmax", "value": "0.25 h"}
{"SMILES": "CCN(CCO)CCCC(C)Nc1ccnc2cc(Cl)ccc12 (stereo not drawn)", "test system": "newly diagnosed glioblastoma patients", "conditions": "oral, 400 mg/dose, grade 4, together with: radiotherapy and temozolomide", "endpoint": "neutrophil decrease patients", "value": "14%"}
{"SMILES": "OCc1cn(Cc2cccc(Cl)c2)c2ccccc12", "test system": "F344 rat, male", "conditions": "oral, daily, two days", "endpoint": "MTD", "value": "100 mg/kg"}
{"SMILES": "CC(C)[C@H](C(=O)O[C@H](C#N)c1cccc(Oc2ccccc2)c1)c1ccc(Cl)cc1", "test": "item: CYP2C9", "test system": "human, age 1 year", "endpoint": "enzyme contribution to clearance", "value": "20.1%"}
{"SMILES": "c1ccc2c(c1)-c1ccc3ccc4cccc5cc-2c1c3c45", "test system": "polyethylene-water partitioning", "conditions": "PAH compilation", "scale": "baseline: maximum over minimum K", "endpoint": "literature range factor", "value": 66}
{"SMILES": "COc1cc(CC(=O)O)ccc1O", "tested on": "Plasmodium falciparum", "test system": "W2", "endpoint": "IC50", "value": "316 nM"}
{"SMILES": "COc1cccc(Oc2ccccc2NC(=O)CNC(=O)c2cccc3ccccc23)c1", "test system": "esterase-deficient SCID mice, male, blood", "conditions": "oral, 15 mg/kg/day, 14 days, toxicity study", "endpoint": "hemoglobin", "value": "13 g/dL and 14.5 g/dL and 12.9 g/dL"}
{"SMILES": "O=S(=O)(Nc1ccccc1)c1ccc(NC(=S)Nc2ccccc2)cc1", "test system": "female mouse, blood", "conditions": "oral, 5 mg/kg daily, 14 days", "endpoint": "haematocrit", "value": "47%"}
{"SMILES": "C=C(CN(C(=O)c1c(C(F)F)nn(C)c1F)C1CC1)c1ccc(Cl)cc1Cl", "test": "static acute toxicity test", "test system": "zebrafish (Brachydanio rerio)", "conditions": "0.482 mg a.i./L, 6 h", "endpoint": "mortality", "value": "0%"}
{"SMILES": "Clc1ccc(-c2cc(Cl)c(Cl)cc2Cl)cc1Cl", "test system": "fresh water", "conditions": "20 °C, S30-1 sampler, 30 µm", "endpoint": "log K(PDMS-water)", "value": "6.04 ± 0.05"}
{"SMILES": "COc1ccccc1NC(=O)Nc1nc(-c2cccnc2)nc2ccccc12", "tested on": "Plasmodium falciparum", "test system": "7G8", "endpoint": "IC50", "value": "2510 nM"}
{"SMILES": "CO[C@H]1C[C@@H]2CC[C@@H](C)[C@@](O)(O2)C(=O)C(=O)N2CCCC[C@H]2C(=O)O[C@H]([C@H](C)C[C@@H]2CC[C@@H](OC(=O)NCCOCCOCCOCCOCCOCCOCCOCCOCCC(=O)N3CCc4cc(Cn5nc(-c6ccc7oc(N)nc7c6)c6c(N)ncnc65)ccc4C3)[C@H](OC)C2)C[C@@H](O)[C@H](C)/C=C(\\C)[C@@H](O)[C@@H](OC)C(=O)[C@H](C)C[C@H](C)/C=C/C=C/C=C/1C", "test system": "patients with advanced solid tumours", "conditions": "intravenous, 12 mg weekly, any grade", "endpoint": "nausea incidence", "value": "58%"}
{"SMILES": "CCCCCCC[N+](CC)(CC)CCCCc1ccc(Cl)cc1", "tested on": "Cholinesterase (BCHE, Homo sapiens, UniProt P06276)", "test": "inhibitor", "endpoint": "IC50", "value": "7690 nM"}
{"SMILES": "Clc1ccc(-c2ccc(Cl)c(Cl)c2)c(Cl)c1", "test system": "fresh water", "conditions": "20 °C", "endpoint": "log K(PDMS-water)", "value": "5.65 ± 0.04"}
{"SMILES": "Clc1ccc(Cl)c(-c2cc(Cl)ccc2Cl)c1", "test system": "Sprague Dawley rat, spleen", "conditions": "intraperitoneal, 10 mg/kg", "endpoint": "relative organ weight", "value": "0.0029 g/g body weight"}
{"SMILES": "Clc1cc(Cl)c(-c2ccc(Cl)c(Cl)c2Cl)cc1Cl", "test system": "polyethylene-water partitioning", "conditions": "PCB compilation", "scale": "baseline: maximum over minimum K", "endpoint": "literature range factor", "value": 6}
{"SMILES": "CCOc1cc(Oc2ccc(C(F)(F)F)cc2Cl)ccc1[N+](=O)[O-]", "test system": "rat, female", "conditions": "250 mg/kg, 4 days", "endpoint": "final body weight", "value": "94.6 ± 2.4 g"}
{"SMILES": "CCCCCCCCCCCCCCCC(=O)N[C@@H](CCC(=O)NCCCC[C@H](NC(=O)[C@H](CC(=O)O)NC(=O)[C@H](CO)NC(=O)[C@@H](NC(=O)[C@H](Cc1ccccc1)NC(=O)[C@@H](NC(=O)CNC(=O)[C@H](CCC(N)=O)NC(=O)[C@H](CO)NC(=O)[C@@H](N)Cc1c[nH]cn1)[C@@H](C)O)[C@@H](C)O)C(=O)N[C@@H](CO)C(=O)N[C@@H](CCC(=O)O)C(=O)N[C@@H](Cc1ccc(O)cc1)C(=O)N[C@@H](CC(C)C)C(=O)N[C@@H](CC(=O)O)C(=O)N[C@@H](CO)C(=O)N[C@@H](CCC(=O)O)C(=O)N[C@@H](CCCNC(=N)N)C(=O)N[C@@H](C)C(=O)N[C@@H](CCCNC(=N)N)C(=O)N[C@@H](CC(=O)O)C(=O)N[C@@H](Cc1ccccc1)C(=O)N[C@H](C(=O)N[C@@H](C)C(=O)N[C@@H](Cc1c[nH]c2ccccc12)C(=O)N[C@@H](CC(C)C)C(=O)N[C@@H](CCC(=O)O)C(=O)N[C@@H](C)C(=O)NCC(=O)NCC(=O)O)C(C)C)C(=O)O", "test system": "human, CrCl ≥20 to <30 mL/min", "conditions": "sc, 100 µg single dose", "endpoint": "treatment-related adverse events", "value": "50%"}
{"SMILES": "CC(=O)c1c(C)c2cnc(Nc3ccc(C4CCN(CCS(C)(=O)=O)CC4)cn3)nc2n(C2CCCC2)c1=O", "test system": "human, plasma", "conditions": "oral, 150 mg, day 1 single dose", "endpoint": "elimination rate constant", "value": "2.22e-05 s⁻¹"}
{"SMILES": "CN1CC[C@@H](c2c(O)cc(O)c3c(=O)cc(-c4ccc(C(F)(F)F)cc4Cl)oc23)[C@@H]1CO", "test": "item: Sepsis", "test system": "B-cell malignancies", "conditions": "oral, 150 mg, intermittent dosing", "endpoint": "patients with adverse event", "value": "0%"}
{"SMILES": "NCCOCC(=O)N1CCCC(C(=O)NCc2nc(-c3ccc(-c4ccc(F)cc4)cc3)cs2)C1 (stereo not drawn)", "test system": "rat, bile duct-cannulated, anaesthetised, bile", "conditions": "intravenous, dose not given, 6 h", "scale": "baseline: dose", "endpoint": "biliary excretion, unchanged", "value": "41%"}
{"SMILES": "COc1c(OCCCN2CCOCC2)ccc2c1N=C(NC(=O)c1cnc(N)nc1)N1CCN=C21", "test system": "human, non-diabetic, raised baseline HbA1c", "conditions": "concentration not given, after treatment, baseline HbA1c 5.7 to 6.5%", "endpoint": "HbA1c", "value": "6.3 ± 0.7%"}
{"SMILES": "CC(C)c1nc(N(C)S(C)(=O)=O)nc(-c2ccc(F)cc2)c1/C=C/[C@@H](O)C[C@@H](O)CC(=O)O", "test system": "healthy human subjects", "conditions": "oral, dose not given, study CL-0537 safety set", "endpoint": "incidence of Myalgia", "value": "0%"}
{"SMILES": "O=[Se](=O)([O-])[O-].[Na+].[Na+]", "test system": "rat", "conditions": "subcutaneous, 0.04 mg/kg", "endpoint": "apparent clearance (CL/F)", "value": "3.6 mL/day/kg"}
{"SMILES": "CN1CCN(c2ccc(Nc3nccc(-c4ccc([N+](=O)[O-])cc4)n3)cc2C(F)(F)F)CC1", "test system": "zebrafish embryos", "conditions": "50 µM, 5 d", "endpoint": "toxicity", "value": "18%"}
{"note": "Excerpt of the above:"}
{"SMILES": "Clc1cc(Cl)c(-c2ccc(Cl)c(Cl)c2Cl)cc1Cl", "test system": "polyethylene-water partitioning", "conditions": "PCB compilation", "scale": "baseline: maximum over minimum K", "endpoint": "literature range factor", "value": 6}
{"SMILES": "CCOc1cc(Oc2ccc(C(F)(F)F)cc2Cl)ccc1[N+](=O)[O-]", "test system": "rat, female", "conditions": "250 mg/kg, 4 days", "endpoint": "final body weight", "value": "94.6 ± 2.4 g"}
{"SMILES": "CCCCCCCCCCCCCCCC(=O)N[C@@H](CCC(=O)NCCCC[C@H](NC(=O)[C@H](CC(=O)O)NC(=O)[C@H](CO)NC(=O)[C@@H](NC(=O)[C@H](Cc1ccccc1)NC(=O)[C@@H](NC(=O)CNC(=O)[C@H](CCC(N)=O)NC(=O)[C@H](CO)NC(=O)[C@@H](N)Cc1c[nH]cn1)[C@@H](C)O)[C@@H](C)O)C(=O)N[C@@H](CO)C(=O)N[C@@H](CCC(=O)O)C(=O)N[C@@H](Cc1ccc(O)cc1)C(=O)N[C@@H](CC(C)C)C(=O)N[C@@H](CC(=O)O)C(=O)N[C@@H](CO)C(=O)N[C@@H](CCC(=O)O)C(=O)N[C@@H](CCCNC(=N)N)C(=O)N[C@@H](C)C(=O)N[C@@H](CCCNC(=N)N)C(=O)N[C@@H](CC(=O)O)C(=O)N[C@@H](Cc1ccccc1)C(=O)N[C@H](C(=O)N[C@@H](C)C(=O)N[C@@H](Cc1c[nH]c2ccccc12)C(=O)N[C@@H](CC(C)C)C(=O)N[C@@H](CCC(=O)O)C(=O)N[C@@H](C)C(=O)NCC(=O)NCC(=O)O)C(C)C)C(=O)O", "test system": "human, CrCl ≥20 to <30 mL/min", "conditions": "sc, 100 µg single dose", "endpoint": "treatment-related adverse events", "value": "50%"}
{"SMILES": "CC(=O)c1c(C)c2cnc(Nc3ccc(C4CCN(CCS(C)(=O)=O)CC4)cn3)nc2n(C2CCCC2)c1=O", "test system": "human, plasma", "conditions": "oral, 150 mg, day 1 single dose", "endpoint": "elimination rate constant", "value": "2.22e-05 s⁻¹"}
